Assay results of several laboratories.
Each numbered part is a random draw from the data of one study; scales do not carry over between parts. Changes are numbered by the printed parent chain.

Sample 1
Target: CCNE2, cyclin fold, Cln2 fusion (human)
Method: yeast growth competition, sequencing
Matrix: yeast
Setting: weak parent motif
Baseline: not given
Direction: higher = stronger binding
Quantity: normalised enrichment score
Starting sequence: PKMYT1 docking peptide (human); SFEPRNLLSLFED
E12K: 0.028
F11E: -0.111
S1E: 0.044
S9P: 1.13
L10F: -0.126
D13F: 0.593
L7Q: -0.776
P4C: 0.943
F11T: -0.593

Sample 2
Target: Interferon regulatory factor 7, full length, phosphomimetic (IRF7, Homo sapiens, UniProt Q92985, residues 1-503, S471D/S472D/S475D/S476D/S477D/S483D/S484D/S487D)
UniProt Q92985, sequence (whole entry, unmodified, looked up): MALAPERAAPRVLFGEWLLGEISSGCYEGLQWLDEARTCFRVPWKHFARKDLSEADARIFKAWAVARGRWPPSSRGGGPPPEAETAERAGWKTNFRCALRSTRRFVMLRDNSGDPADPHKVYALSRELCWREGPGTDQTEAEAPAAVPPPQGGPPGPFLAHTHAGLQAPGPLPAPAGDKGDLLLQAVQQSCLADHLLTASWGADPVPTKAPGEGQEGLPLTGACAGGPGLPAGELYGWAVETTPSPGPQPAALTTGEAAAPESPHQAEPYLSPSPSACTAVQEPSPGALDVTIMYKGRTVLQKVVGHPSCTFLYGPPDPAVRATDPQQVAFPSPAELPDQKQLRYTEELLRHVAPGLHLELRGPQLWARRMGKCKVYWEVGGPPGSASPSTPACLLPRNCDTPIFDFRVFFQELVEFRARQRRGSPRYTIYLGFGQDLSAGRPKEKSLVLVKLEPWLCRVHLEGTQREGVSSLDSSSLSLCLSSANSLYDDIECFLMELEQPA
Method: protein-binding microarray
Form: double-stranded DNA, one strand shown
Matrix: in vitro
Tested at: 2200 nM top
Setting: 60-bp whole probe
With: salmon DNA 0.4 mg/ml
Baseline: random background probes
Direction: higher = stronger binding
Quantity: fitted relative affinity
Constant ends, left off below: GCCTAGCAC … GTCTTGATTCGCTTGACGCTGCTG
TGCTTTCTCTTTCACTGCTGGTGCTAG: 7.87 z-score
TTAGGTATCGACCATCGGTTAGTGCTA: 0.0597 z-score
GGTCTTTTCGCTTTCTTTACGTGCTAG: 7.2 z-score
GACGGTTTCGGACTGGAGACGTGCTAG: 3.28 z-score
TCATGATCCATTTTGGTACTGTGCTAG: 1.32 z-score
GACCGACTGGACTTTCGGGACGTGCTA: 2.4 z-score
AATTAAATGATATATATCCATGTGCTA: -0.406 z-score
GACGGTATGGGGTTTCGGGACGTGCTA: 1.06 z-score
TCATTTTCGTTTTTATTACTGTGCTAG: 11.7 z-score
GAGGGTATCGACACTGGGGACGTGCTA: -0.683 z-score

Sample 3
Target: UBE2E2 UBC core domain (UniProt Q96LR5)
UniProt Q96LR5, sequence (whole entry, looked up): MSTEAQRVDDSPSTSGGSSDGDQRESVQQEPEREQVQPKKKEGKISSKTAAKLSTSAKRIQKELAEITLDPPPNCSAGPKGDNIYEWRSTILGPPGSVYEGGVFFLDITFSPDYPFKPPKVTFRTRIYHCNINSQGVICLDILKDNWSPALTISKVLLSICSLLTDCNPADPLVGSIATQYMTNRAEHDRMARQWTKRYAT
Method: yeast two-hybrid
Matrix: yeast
Setting: mostly zero background
Baseline: not given
Direction: higher = stronger interaction
Quantity: lacZ reporter activity
B1: PEX2 RING domain (UniProt P28328); chain DNTLATSGKECALCGEWPTMPHTIGCEHIFCYFCAKSSFLFDVYFTCPKCGTEVHSLQPLK
B2: RNF32 RING domain (UniProt Q9H0A6); chain SLLQGDSVQPCPICKEEFELRPQVLLSCSHVFHKACLQAFEKFTNKKTCPLCRKNQYQTRVIH
B3: TRIM10 RING domain (UniProt Q9UDY6); chain SVTSLADEVNCPICQGTLREPVTIDCGHNFCRACLTRYCEIPGPDLEESPTCPLCKEPFRPGSFRP
B4: RNF149 RING domain (UniProt Q8NC42); chain EKGIDVDAENCAVCIENFKVKDIIRILPCKHIFHRICIDPWLLDHRTCPMCKLDVIKALGYW
B5: RNF4 RING domain (UniProt P78317); chain TGLRPSGTVSCPICMDGYSEIVQNGRLIVSTECGHVFCSQCLRDSLKNANTCPTCRKKINHKRYHP
ISNDSETLEECMVCSDMKRDTLFGPCGHIATCSLCSPRVKKCLICKEQVQSRTKIE (MIB1 RING domain (UniProt Q86YT6)): 0
B1 (PEX2 RING domain): 0
B2 (RNF32 RING domain): 0
B3 (TRIM10 RING domain): 0
B4 (RNF149 RING domain): 0
B5 (RNF4 RING domain): 0

Sample 4
Target: TAR DNA-binding protein 43, full length, His tag (TARDBP, Homo sapiens, UniProt Q13148, residues 1-414)
Method: RNA Bind-n-Seq
Form: RNA
Matrix: in vitro
Tested at: 20 nM
Setting: 6-mer, flanks averaged, single round
With: 150 mM LiCl
Baseline: input library
Direction: higher = stronger binding
Quantity: 6-mer enrichment (R)
CUGUUC: 0.923
AAAGUG: 1.05
GCUACU: 0.866
UUCCCU: 1.07
AACCAC: 0.862
CGGUUG: 1.05
GUACGC: 0.916
AGCAGG: 1.01
UGUAAU: 1.04
AGUAAU: 0.897
UAAUAG: 0.956
ACCUCU: 0.91

Sample 5
Target: RING finger protein unkempt homolog, zinc fingers 1-6, GST-SBP tag (UNK, Homo sapiens, UniProt Q9C0B0, residues 30-357)
UniProt Q9C0B0, sequence (30-357, looked up): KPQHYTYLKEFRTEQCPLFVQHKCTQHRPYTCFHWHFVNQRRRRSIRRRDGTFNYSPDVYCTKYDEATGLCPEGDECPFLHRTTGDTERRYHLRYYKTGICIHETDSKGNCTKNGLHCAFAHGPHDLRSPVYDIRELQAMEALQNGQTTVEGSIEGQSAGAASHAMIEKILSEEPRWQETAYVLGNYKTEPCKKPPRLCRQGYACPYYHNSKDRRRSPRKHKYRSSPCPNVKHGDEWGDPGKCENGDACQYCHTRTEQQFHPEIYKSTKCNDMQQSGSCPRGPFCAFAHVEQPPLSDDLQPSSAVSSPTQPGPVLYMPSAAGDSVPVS
Method: RNA Bind-n-Seq
Form: RNA
Matrix: in vitro
Tested at: not given
Setting: RNA with constant flanks, ends assumed
Baseline: input RNA pool
Direction: higher = stronger binding
Quantity: bound/input enrichment
Constant ends, left off below: GGGAGUUCUACAGUCCGACGAUC … CAACAGAGGAUUGAGCAUCA
CAGCUGUGGGAAACGAGCUUUGCUUUUAUAUAUAUAUAUAUAUAUAUAUAUAUAUAUUUAAACCGGAUACUUUUAUAUGAUGGGUGCUUUGAGUGUGAAUGCAGCAGGCUCUAUCUCAGA: 1.1 ratio
AUGGAUAUUGAAUUUGACUUUAAAGGCGAUCCACUAGGAGGAGUAAUAAGUAACUAUCUUUCCGAGAAAUCUCGGGUUGUUAAACAGCCAAGAGGUGAAAGAAACUUCCAUGUGUUCUAU: 0.116 ratio
UAUAUAUAUAUAUAUCAAAAAGCCAAAAUCUUUAUUUUUAUGCACCUAGAAUAUUUUAAACCGUUCUCAAUAUUAAAAAGUAUGAGUUGUAAGUAAUCUUGCCAAAAGUGAGCGGGUUAG: 12.6 ratio
ACCACUCAACAAACAGUCCCCACCACACCUAUCUCCUUAGGCAAGACUUUGCCUCUCUCCCCGUCCUGAGUAUAAAUCCUGUGCAUAGAUUCCUCUAGAAAGGCAUCAAAAGGCUCAACA: 1.02 ratio
CAUUAUGACCGGGCUCAUAUUGCUCAACUGUGUGAAAAGGCUGGCCUACUGCAGCGUGCAUCCGAACAUUUCACUGAUUUAUAUGAUAUAAAACGUGCAGUGGUUCACACCCAUCUUCUU: 0.118 ratio
UAAAGAGCAGCUGGAUUCAUCUAAUAGUACCAUUGCCAUUUUACAAACUGAGAAAGACAAACCCGAGUUGGAAAUUACAGAUUCUAAAAAAGAACAAGAUGAUCUCUUGGUGCUCUUGGC: 0.59 ratio
GACAGUGGAGAAGAGGUGGACUUGGUUAAGGAAGCGGACGUCCCCUCAGCCAUUAGUCUCCUCCGGUUUUUCCUGCAGGAGCUCCCUGAGCCCGUCAUACCUGGCAGCUUGCAUAUUCAC: 0.268 ratio

Sample 6
Target: ABI1, truncated, D143A, DHFR fusion (Arabidopsis thaliana)
Method: DHFR PCA, deep sequencing
Matrix: yeast
Setting: methotrexate growth selection, single substitutions
With: (+)-ABA 200 µM
Baseline: wild-type fitted maximum
Direction: higher = stronger binding
Quantity: relative binding score
Starting sequence: PYL1, truncated, DHFR fusion (Arabidopsis thaliana); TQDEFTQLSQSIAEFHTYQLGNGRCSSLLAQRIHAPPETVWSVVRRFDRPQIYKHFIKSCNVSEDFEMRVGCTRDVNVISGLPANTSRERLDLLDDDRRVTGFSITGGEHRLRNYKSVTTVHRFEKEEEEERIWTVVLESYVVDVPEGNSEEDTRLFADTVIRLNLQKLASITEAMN
F56R: 0.375%
N85G: 100%
N61K: 110%
E127T: 100%
H122A: 47.8%
S150C: 91.3%
R163E: 72.4%
S26G: 96%
S140A: 5.03%
T154C: 91.4%
V142A: 89.9%
L93D: 57.6%
E139P: 6.2%
A170S: 88.6%
L112Y: 33.4%
E4R: 84.8%
I133A: 115%
E152G: 93.2%
R99S: 69.2%
F103E: -2.82%

Sample 7
Target: Prothrombin, mature alpha-thrombin (F2, Homo sapiens, UniProt P00734)
Method: aptamer microarray, sandwich
Form: DNA with 2'F-ANA
Matrix: in vitro
Tested at: 200 nM
Setting: whole 15-mer aptamer, many near background
With: Cy3 exosite-II aptamer, 400 nM
Direction: higher = stronger binding
Quantity: mean fluorescence intensity
Strand: GGTTGGTGTGGTTGG
2'F-ANA at 1 6 12 14: 67.3 a.u.
2'F-ANA at 1 6 7 10 11: 101 a.u.
2'F-ANA at 4 6 7 11 12 14: 93.5 a.u.
2'F-ANA at 2 4 5 7 8 10 11 14: 45.9 a.u.
2'F-ANA at 1 2 3 4 11 14: 64.1 a.u.
2'F-ANA at 1 3 4 10 15: 66.6 a.u.
2'F-ANA at 1 4 6 7 8 9 10 11 13: 70.2 a.u.
2'F-ANA at 2 3 5 9 10 13 15: 53.2 a.u.
2'F-ANA at 2 3 4 5 7 8 9 11 12 13 14: 80.2 a.u.
2'F-ANA at 1 5 6 7 8 12 13 14 15: 51.2 a.u.
2'F-ANA at 1 3 9 14 15: 98.4 a.u.
2'F-ANA at 1 2 4 6 7 9 10 11 12 13 14 15: 66.1 a.u.
2'F-ANA at 2 7 8 11 12 13 15: 588 a.u.
2'F-ANA at 1 3 9 10 13 14: 58.5 a.u.
2'F-ANA at 1 2 5 6 7 8 10 11 14 15: 50 a.u.
2'F-ANA at 1 5 13 14: 42 a.u.
2'F-ANA at 1 2 6 7 8 9 10 13 15: 64.4 a.u.
2'F-ANA at 1 2 3 5 9 10 13 14: 46.4 a.u.
